Results gathered from unrelated publications.
Each numbered part is a random draw from the data of one study; scales do not carry over between parts. Changes are numbered by the printed parent chain.

Block 1 — target: CCNB3, cyclin fold, Cln2 fusion (human); method: yeast growth competition, sequencing; matrix: yeast; setting: weak parent motif; baseline: not given; direction: higher = stronger binding; measurement: normalised enrichment score
Parent: ORC1 docking peptide (human); PRARKRLELGNLG; partner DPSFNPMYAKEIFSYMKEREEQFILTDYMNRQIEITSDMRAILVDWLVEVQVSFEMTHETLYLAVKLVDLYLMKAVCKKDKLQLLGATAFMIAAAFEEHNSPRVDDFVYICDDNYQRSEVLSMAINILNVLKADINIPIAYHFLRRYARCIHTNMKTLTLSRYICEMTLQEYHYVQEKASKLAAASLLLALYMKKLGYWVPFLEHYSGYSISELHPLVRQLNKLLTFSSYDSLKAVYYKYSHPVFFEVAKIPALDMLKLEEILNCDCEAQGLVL
N11I: -0.241
A3Q: 0.554
L7A: 0.175
A3P: 0.0158
K5L: -0.0501
R6A: -0.00787
P1G: -0.641
G10W: 0.753
P1T: 0.123
L9D: 0.0198
L9K: 0.0317
R4A: 0.0747
G10H: -0.0642
L9Q: 0.299
A3C: 0.504
R6M: 0.244
L9C: 0.271

Block 2 — method: RNA Bind-n-Seq; molecule type: RNA; matrix: in vitro; tested at: 100 nM; baseline: input RNA pool; direction: higher = stronger binding; measurement: bound/input enrichment
Target: RING finger protein unkempt homolog, zinc fingers 1-6, SBP tag (UNK, Homo sapiens, UniProt Q9C0B0, residues 30-357)
UniProt Q9C0B0, sequence (30-357, looked up): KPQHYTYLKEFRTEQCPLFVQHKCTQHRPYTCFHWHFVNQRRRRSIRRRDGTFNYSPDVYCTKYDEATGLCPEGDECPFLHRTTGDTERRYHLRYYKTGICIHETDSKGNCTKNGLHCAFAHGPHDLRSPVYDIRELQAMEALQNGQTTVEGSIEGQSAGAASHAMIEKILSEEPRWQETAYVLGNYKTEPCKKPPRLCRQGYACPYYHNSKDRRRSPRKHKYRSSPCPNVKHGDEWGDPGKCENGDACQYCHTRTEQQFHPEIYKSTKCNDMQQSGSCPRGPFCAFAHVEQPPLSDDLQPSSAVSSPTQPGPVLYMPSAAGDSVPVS
Setting: RNA with constant flanks, vertebrate orthologous sites, ends assumed
All sequences stand within: GGGAGUUCUACAGUCCGACGAUC … CAACAGAGGAUUGAGCAUCA
CCAAAAUUUUAGCCAAGAAUCUGAAGGCAGAAAUACAGGACCAUGGUUAUCUUCCUCACUUAGAAAUAGAUGCACACCUUUGUUCUCUAGAAGGAGGCGAGAGGGACGAGAUGAAUCUUC: 1.13 ratio
CCCCGUUUUUAAAUGCUCUUUUGAUGCUUCCGGCAGCACCAUUUGUACAGUUUUUCUCUAAAAACAAAAAUGUUGAUUCGAAUUUCUUGUAUUUAAGUUUAAAUUGUUACAACAUUUUAG: 0.236 ratio
GCUGUUAAUGCACUGUUAUACCAGGCAUUGUCUGAAGUUAGUGUAAUCUAGAAGAUUUUAUAGUUUUAUUUUAAUGAAGUAUGAAUUGAAGCAAAGCUGUUAGGAGUAUGUAGUCUUUUA: 2.11 ratio
CCACUAUAAACAACUCAGGGCAGUACUCCCGCUAUCCUUACAGCAACCUAAAUCAGGGAUUAGUUAACAGUACAGGGAUGAACCAGAACCUAGGCCUUACCAAUAGCGCUCCCCUGAACC: 0.976 ratio
AAUAAUGAAUAGUAUUAAAGAAACAUUCUCGUCUUCCUUUACCUUUAAUCCCUUAAUACCUAGUCUACUUUUUAAAUUUUCAGACUUCACUGCUUUUUGAAUUCAUAAUUCUAAUUUUCA: 2.11 ratio
UCCCAGCACUCUGAUAAAAAGUGUGGACUGGUUGCUUGUAUUUUCCUUAUUCUUUUUAAUCAGUUUUAUUAUGUACGCUACCAUUCGAACUGAGAGUAUUCGGUGGCUGAUUCCAGGACA: 0.71 ratio
UUCAGGCACAACUGACUGGUUCACAGCACUCCUUACAUAGUUAUCUAUCAAAUUCAAGUGUAGUUAAUUUUCAGGAAACAACCAGGCAGUCUUUAUCCUGUAGCCCAAUUGGAGAUUCCA: 1.57 ratio
UGCCCCCCACCCCAUGGGAGGGAGUGGGGGAACUCAGGAUGACCCUCAACUGUUCCAAUCCAGUAUUUUUUUUUCUUUUUUUAAAUUACUGUAUUUAUUAUGACGAUGGUGACUCCCCGG: 0.893 ratio
CAUAUCCUUGUUACUGUGAUAUUUAAAAUAUCCACAGUACUCACUUUUUCCAGAUGACUUUGGUAAUUGCCUAGAAAUAUCUUUCUCUUACCUGUUAUUUAUCAAUUUUUCCCAGUAUUU: 0.609 ratio
UCUAGGUGGGGGUAACCAUUAACAUAUUUAAAUAAAGAAAAGAAGUGCUGAAAAUCAUGUUAGUCCUAAGUUUAGUUGGAGAAUUUACAUAAGCCUCUUUUAGGUAAUUCUAAAAUUGAA: 1.03 ratio
GUUAAUUGUGUACCAAAUGCUGAGUGAGGAUCACAUUAAACCAUCAGUUAGAAUAGAGAUUUGUUACAGUUUAGCUUCAAAUAGGUUUCCUUAAACCAGAGAUGCACUGCCCUUGUCUGG: 1.59 ratio

Block 3 — method: RNA Bind-n-Seq; molecule type: RNA; matrix: in vitro; tested at: 365 nM; baseline: no-protein control; direction: higher = stronger binding; measurement: RBNS enrichment (R)
Target: RNA binding protein fox-1 homolog 2, RRM domain, GST-SBP tag (RBFOX2, Homo sapiens, UniProt O43251-10, residues 100-194)
Setting: natural RNA segment, single round, ends assumed
All sequences stand within: GGGAGUUCUACAGUCCGACGAUC … UGGAAUUCUCGGGUGCCAA
GGUGAAGAGUUGCAAACCCCUCUGUCCCUGCAGUACUGCCUGAGUGUGUGGUGAUUCUGGGCUCUCCACAACCAGCUCAAAGCAGCUAGCACCCGUGCUCACUGUUGUUG: 0.535
UAGGGGGUGAAGUGAGCCAGCUUGCACCUCAGGCUAACACAUAGGACUUUGCUCAGCCAUGUCCCCUGGGAUACAGGGGCACACCAGGACCAAGUGGCAGACCUGUGGGC: 0.483
UUAGGAGGGCUUUAGGGGCUCCCUGGUUGAGUAUCACCCUGCCCCUUCCCCUCUCUUCCUCCCCUCUGCACUUUGUUUACUUGUUUUGCACAGACGUGGGCCUGGGCCUU: 0.627
UUUUGCACAAAUGACUCUUUUAUAUUUAAUUCGAUUUCAUUGCCUCCCUUCUUAAAGCCAACAGGCUCAGUUUACAAACCUGUGAGCUACUGUUGGCUGCUGCCCUCCUU: 0.872
UGUUGACCACAUACAGCAGGCAGCUUCACGUCCUCCCGCUAACAUCUGCUGCCUUAGACCUGGGUGGGAUGUCUUGCUUAUUUGAAAUGUGUAGUGUUGAUUGACACAUU: 0.772
GGGCGUUUCUUGCCCUCUGCUGACUACUGAUUGGAUUUUACCUAUGGCUUUCUGCAACUUGCUACUCUCUCCCUCUCCAUCCCAUCUUUGCAGCCUCAUAGGGUGGGAUA: 0.522
AUCAGAAGAUCACUUAGACAACAUCUGAUAUUAAUGUGAUUCUUGCAUUCAAGACACUUGCAAAUGUCUUUUUCUAAGCAGUAGUUAGAAAGAGCUCAAUUAUAGUAUUA: 0.435
AAGGGUGAGAGGGGCCCUGAAAGUUCAUAUGGUGGGUAUGUCCCGCAGCAGAGUGAGGAGAUGAAGCUUACGUGUCCUGACGUUUUGUUGCUUAUACUGUGAUAUCUCAU: 0.923
GUUGAUUAAUAGCUGAAGCAAAGUAUCCAAAUUUGUGACAAGGGUUUGUGUGUAUCCCCUCCGUGAAAUCCAGCCAAUUAUCAGGGUAGAAGAUGGGUGCAUGAGAAUCU: 1.17
CAUUUAUACUGUCUGUUCUGUACAGUUCUCUCAGAUAAUGACAAUAGCUUGGGAUUUUUUUUUUUUUUAAUGUAGAAAAACCCUGUAGAACCAGUGCUUUGGCCACUUUC: 1.11
GUGGGACUGGCACUAUUUGAGGUUAAGACAAACUGCAUAUGUACUUCAAUUGCUUUGCACUUUUCCGUUUCAGCGGAAGACCUGAAGAGUGGUCAGAACAGAGCCUUUGA: 0.403
UAAAUUCAGAAGAGUGAUUCUAAAUCUAAAGAAUCAUAUCAUUAAUUAUGUGACAUUGAAACCUGCUGCUGCCGUGAUCUUGAGGAGAGUACAGAUGGGGAGGAAGGUUC: 0.999

Block 4 — target: BATF3, bZIP domain (human); method: DHFR protein complementation; matrix: yeast; baseline: wild-type JUN-FOS pair; direction: higher = stronger binding; measurement: binding fitness
Setting: single substitutions, most at no-binding floor
Parent: JUN, bZIP domain (human); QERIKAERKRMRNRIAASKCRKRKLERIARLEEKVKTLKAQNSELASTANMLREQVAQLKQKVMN; partner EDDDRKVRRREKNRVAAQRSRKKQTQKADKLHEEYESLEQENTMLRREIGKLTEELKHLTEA
L45T: -0.625 natural log
K36L: 0.225 natural log
R30L: 0.235 natural log
L52K: -0.165 natural log
K34H: 0.241 natural log
T48V: 0.172 natural log
E54C: 0.0528 natural log
T37I: 0.212 natural log
I28V: 0.211 natural log
R30Q: 0.22 natural log
E54W: 0.0202 natural log
Q41G: 0.0214 natural log
A46N: 0.349 natural log
A29F: 0.147 natural log
L45W: -0.017 natural log
T37R: 0.246 natural log
E44M: 0.224 natural log

Block 5 — method: RNAcompete; molecule type: RNA; matrix: in vitro; tested at: 20 nM; setting: 7-mer, probes averaged, single round; baseline: mean of 7-mers; direction: higher = stronger binding; measurement: 7-mer Z-score
Target: PABPC1L2, full length, GST fusion (mouse, UniProt A0ABA7IW68)
Residues (chain): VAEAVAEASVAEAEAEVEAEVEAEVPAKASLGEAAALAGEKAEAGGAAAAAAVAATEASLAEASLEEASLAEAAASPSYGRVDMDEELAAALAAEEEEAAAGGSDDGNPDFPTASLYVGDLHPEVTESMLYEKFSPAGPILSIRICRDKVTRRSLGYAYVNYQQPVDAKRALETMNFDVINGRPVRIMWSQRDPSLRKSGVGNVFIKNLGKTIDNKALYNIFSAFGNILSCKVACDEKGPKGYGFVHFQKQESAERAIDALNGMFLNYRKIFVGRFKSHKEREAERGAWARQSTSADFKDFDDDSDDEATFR
UCAAUUU: -0.162
GCAUGAC: 0.00979
UAACAGA: 0.276
UGCGAUC: -0.233
UAGGUAA: -0.05
GCAAGCG: -0.0536
UUGUGGG: -0.133
UACCUUC: -0.273
GUUCGGG: -0.229
CCGGAUC: -0.249
CCGGUGA: -0.103
GUUGUCU: -0.365
CCCCAGU: -0.251
UUGCUCC: -0.4
CCGAAAC: 0.0334
GUGGGGA: 0.412
CAGACAG: 0.0678
CUCCCCG: -0.434
CAAAUUU: 0.356
AACUUCU: -0.117
GGGCGUG: 0.229
CCAUUUC: -0.452
UGCUCAG: -0.186
GCCUGCA: -0.0609
AAUGGCG: 0.169

Single results of other studies
PhoQ, residues 284 288 289 292 302 303 SIHMAM  fold induction (PhoP, residues 12 14 15 18 19 NMSSL (Escherichia coli, UniProt P23836); Sort-seq, item: YFP reporter; E. coli; PhoQ-PhoP variant library, together with: 10 µM Mg2+; baseline: high Mg2+ state, higher = stronger signaling): 2.86
